Results from different studies.
Each numbered part is a random draw from the data of one study; scales do not carry over between parts.

Study 1 — technique: aptamer microarray, sandwich; molecule type: DNA with 2'F-ANA; sample: in vitro; tested at: 200 nM; with: Cy3 exosite-II aptamer, 400 nM; direction: higher = stronger binding; oligonucleotide: GGTTGGTGTGGTTGG
Target: Prothrombin, mature alpha-thrombin (F2, Homo sapiens, UniProt P00734)
Setting: whole 15-mer aptamer, many near background
| Modification | mean fluorescence intensity [a.u.] |
| --- | --- |
| 2'F-ANA at 1 2 9 12 13 14 15 | 64 |
| 2'F-ANA at 1 2 5 6 7 9 11 12 15 | 108 |
| 2'F-ANA at 1 3 4 6 8 | 249 |
| 2'F-ANA at 2 4 5 6 12 13 14 15 | 65 |
| 2'F-ANA at 1 2 3 4 5 7 8 11 13 14 15 | 49 |
| 2'F-ANA at 2 5 8 9 13 15 | 57.5 |

Study 2 — technique: protein-binding microarray; molecule type: double-stranded DNA, one strand shown; sample: in vitro; tested at: 250 nM; setting: 60-bp whole probe; with: salmon DNA 0.4 mg/ml; relative to: random background probes; direction: higher = stronger binding; constant ends, left off below: GCCTAGCAC … GTCTTGATTCGCTTGACGCTGCTG
Target: Interferon regulatory factor 5, full length, phosphomimetic (IRF5, Homo sapiens, UniProt Q13568-2, residues 1-514, K96S/S451D/S453D/S456D/S462D)
| Oligonucleotide | log fluorescence [z-score] |
| --- | --- |
| TTAGGTATCGTCACTGGGTTAGTGCTA | 0.858 |
| TTACGACTGGGGACTGGGTTAGTGCTA | 0.218 |
| TTAGGTTTCCTACTGTTTTAGTGCTAG | 0.625 |
| GACGGACTGCTTTTCCTGAGGTGCTAG | -0.303 |
| GACGGTCTCCCTATCCTGACGTGCTAG | -0.187 |

Study 3 — technique: protein binding microarray; molecule type: double-stranded DNA, one strand shown; sample: in vitro; tested at: not given; relative to: not given; direction: higher = stronger binding
Target: Histone acetyltransferase KAT6A, both winged helices, GST fusion (KAT6A, Homo sapiens, UniProt Q92794, residues 1-181)
Setting: 8-mer, flanks averaged, mean of 2 arrays, mostly near background
Residues (chain): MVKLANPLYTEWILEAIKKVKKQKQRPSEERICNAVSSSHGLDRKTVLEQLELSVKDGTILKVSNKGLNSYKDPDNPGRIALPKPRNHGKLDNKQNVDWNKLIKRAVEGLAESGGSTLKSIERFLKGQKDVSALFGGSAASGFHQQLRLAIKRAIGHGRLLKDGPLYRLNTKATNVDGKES
| Oligonucleotide | E-score |
| --- | --- |
| CAACTCGA | -0.149 |
| GCGTAATA | 0.163 |
| CAATTTCG | -0.0216 |
| GCGTGAGA | 0.143 |

Further values, each from its own experiment
| Substance | target | assay | test system | conditions | scale | quantity | result |
| --- | --- | --- | --- | --- | --- | --- | --- |
| PhoQ, residues 284 288 289 292 302 303 ASSHFY | PhoP, residues 12 14 15 18 19 IFFTR (Escherichia coli, UniProt P23836) | Sort-seq, refers to: YFP reporter | E. coli | PhoQ-PhoP variant library, with: 10 µM Mg2+ | relative to: high Mg2+ state, higher = stronger signaling | fold induction | 9.31 |

For quick reference, copied from above (further values, each from its own experiment):
| Substance | target | assay | test system | conditions | scale | quantity | result |
| --- | --- | --- | --- | --- | --- | --- | --- |
| PhoQ, residues 284 288 289 292 302 303 ASSHFY | PhoP, residues 12 14 15 18 19 IFFTR (Escherichia coli, UniProt P23836) | Sort-seq, refers to: YFP reporter | E. coli | PhoQ-PhoP variant library, with: 10 µM Mg2+ | relative to: high Mg2+ state, higher = stronger signaling | fold induction | 9.31 |
